Measured values of several laboratories.
Compare with care: the assays were run in different laboratories. Numbers after ± are the reported error.
UniProt P51957, sequence (whole entry, looked up): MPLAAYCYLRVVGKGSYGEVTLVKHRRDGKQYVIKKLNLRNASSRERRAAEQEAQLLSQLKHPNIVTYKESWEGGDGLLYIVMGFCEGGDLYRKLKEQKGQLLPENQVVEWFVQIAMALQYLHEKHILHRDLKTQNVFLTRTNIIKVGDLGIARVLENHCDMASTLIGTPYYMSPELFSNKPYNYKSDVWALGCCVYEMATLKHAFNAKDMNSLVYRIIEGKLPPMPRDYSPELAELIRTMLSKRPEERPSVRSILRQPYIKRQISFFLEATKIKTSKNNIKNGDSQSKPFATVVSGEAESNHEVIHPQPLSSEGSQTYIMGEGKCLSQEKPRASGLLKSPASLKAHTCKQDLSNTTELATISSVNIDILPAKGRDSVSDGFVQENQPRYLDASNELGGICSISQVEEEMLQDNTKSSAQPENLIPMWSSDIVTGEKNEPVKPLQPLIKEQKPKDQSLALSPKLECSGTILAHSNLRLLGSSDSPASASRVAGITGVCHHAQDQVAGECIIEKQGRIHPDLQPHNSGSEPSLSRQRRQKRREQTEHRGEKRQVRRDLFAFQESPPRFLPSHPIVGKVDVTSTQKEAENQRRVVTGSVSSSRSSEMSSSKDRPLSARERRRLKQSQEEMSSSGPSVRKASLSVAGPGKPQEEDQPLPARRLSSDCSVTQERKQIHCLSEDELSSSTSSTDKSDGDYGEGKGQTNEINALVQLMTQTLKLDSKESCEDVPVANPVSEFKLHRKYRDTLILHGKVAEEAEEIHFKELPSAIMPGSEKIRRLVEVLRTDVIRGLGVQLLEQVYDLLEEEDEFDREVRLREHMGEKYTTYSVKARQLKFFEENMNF
UniProt P54756, sequence (whole entry, looked up): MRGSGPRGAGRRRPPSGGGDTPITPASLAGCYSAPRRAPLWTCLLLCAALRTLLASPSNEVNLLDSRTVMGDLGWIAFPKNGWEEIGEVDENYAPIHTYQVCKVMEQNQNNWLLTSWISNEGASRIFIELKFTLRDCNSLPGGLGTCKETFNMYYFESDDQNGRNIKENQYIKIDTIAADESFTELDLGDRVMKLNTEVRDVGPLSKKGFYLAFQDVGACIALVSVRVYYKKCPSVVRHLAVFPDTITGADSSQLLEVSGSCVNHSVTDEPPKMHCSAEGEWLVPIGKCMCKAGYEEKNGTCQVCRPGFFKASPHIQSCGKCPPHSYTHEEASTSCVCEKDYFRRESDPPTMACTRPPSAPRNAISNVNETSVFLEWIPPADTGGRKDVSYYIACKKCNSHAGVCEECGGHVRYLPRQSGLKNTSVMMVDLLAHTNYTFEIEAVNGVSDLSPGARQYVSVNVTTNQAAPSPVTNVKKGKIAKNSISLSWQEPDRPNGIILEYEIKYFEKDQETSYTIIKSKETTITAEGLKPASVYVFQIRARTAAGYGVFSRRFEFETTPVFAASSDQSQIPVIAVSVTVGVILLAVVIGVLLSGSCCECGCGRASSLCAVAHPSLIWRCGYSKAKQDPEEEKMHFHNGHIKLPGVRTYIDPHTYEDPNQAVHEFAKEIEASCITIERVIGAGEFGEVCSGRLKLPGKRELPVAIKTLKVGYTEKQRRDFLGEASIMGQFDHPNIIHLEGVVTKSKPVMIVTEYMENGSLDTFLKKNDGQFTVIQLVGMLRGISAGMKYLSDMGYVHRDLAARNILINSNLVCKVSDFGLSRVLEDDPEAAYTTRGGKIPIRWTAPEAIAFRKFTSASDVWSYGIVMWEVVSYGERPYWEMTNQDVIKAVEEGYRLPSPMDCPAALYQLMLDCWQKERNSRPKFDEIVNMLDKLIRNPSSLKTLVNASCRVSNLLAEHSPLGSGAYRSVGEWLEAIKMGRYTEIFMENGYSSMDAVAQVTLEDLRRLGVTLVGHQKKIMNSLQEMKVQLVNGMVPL

With `CCCCCCCCCCCCCCCCCCCCCCCCCC(=O)O[C@H](CCCCCCCCCCCCCC)[C@@H](O)[C@H](CO[C@H]1O[C@H](CO)[C@H](O)[C@H](O)[C@H]1O)NC(=O)OCOC(=O)CCCCCn1cc(CCC(=O)N[C@@H](Cc2ccccc2)C(=O)N[C@@H](Cc2ccccc2)C(=O)N[C@@H](CCCNC(=N)N)C(=O)N[C@@H](CCCCN)C(=O)N[C@@H](CO)C(=O)N[C@H](C(=O)N[C@H](C(=O)N[C@@H](CC(N)=O)C(=O)N[C@@H](Cc2ccccc2)C(=O)N[C@@H](CCC(=O)O)C(=O)N[C@@H](CCCCN)C(=O)N[C@@H](CC(C)C)C(=O)O)[C@@H](C)CC)[C@@H](C)CC)nn1` the α-GalCer released was 0.9% (HPLC-ESI-MS/MS; aqueous ammonium acetate; 10 µg/mL, eight days, pH 9.0, 20 °C).
`Cc1cc(O)cc(C)c1C[C@H](N)C(=O)N[C@H](CCCNC(=N)N)C(=O)N[C@@H](Cc1ccccc1)C(=O)N[C@@H](CCCCN)C(=O)NCCCCCC(=O)N[C@@H](CCCCNC(=O)CN1CCN(CC(=O)O)CCN(CC(=O)O)CCN(CC(=O)O)CC1)C(N)=O` [indium-111 labelled] has a logD of -4.55 ± 0.11 (pH 7.4).
The relative abundance of `COc1ccccc1-c1n[nH]c2nc(NC3CCN(C(=O)Cc4ccc(F)cc4F)CC3)ncc12` is reported as 0.49 (bead binding, competition bead pull-down, item: LINJ.25.1530; Leishmania donovani axenic amastigote extract; 10 µM; relative to: vehicle).
With `CC(C)[C@H]1NC(=O)C[C@H]2/C=C/CCSSC[C@@H](NC1=O)C(=O)N[C@H](Cc1cccc3ccccc13)C(=O)NCC(=O)O2` the inhibition was -9.3% (Ephrin type-A receptor 5 (EPHA5, Homo sapiens, UniProt P54756); enzyme activity, inhibitor; 10 µM).
With `CC(C)C[C@@H]1NC(=O)[C@H](CC(=O)O)NC(=O)CNC(=O)[C@H](CCCNC(=N)N)NC(=O)[C@H](Cc2ccccc2)NC(=O)[C@H](CCCCNC(=O)CCc2cn(CCCNC(=O)CCC(C(=O)O)N3CCN(CC(=O)O)CCN(CC(=O)O)CCN(CC(=O)O)CC3)nn2)N(C)C(=O)[C@H]2CCCN2C(=O)[C@H](Cc2ccccc2)NC(=O)[C@H](C)NC1=O` (stereo partly drawn) the tissue-to-tissue ratio was 17 ± 2.5 (female CB17 SCID mice, tumour and muscle; intravenous, dose not given, 90 min, 177Lu-labelled; relative to: tumour over muscle).
With `COc1ccccc1-c1n[nH]c2nc(N[C@H]3CC[C@H](NS(=O)(=O)CC(C)C)CC3)ncc12` the relative abundance was 0.84 (bead binding, competition bead pull-down, item: LINJ.25.2230; Leishmania donovani extract; 10 µM; relative to: vehicle).
`CC[C@H](C)[C@@H]([C@@H](CC(=O)N1CCC[C@H]1[C@H](OC)[C@@H](C)C(=O)N[C@H](C)[C@@H](O)c1ccccc1)OC)N(C)C(=O)[C@@H](NC(=O)[C@H](C(C)C)N(C)C(=O)OCc1ccc(NC(=O)[C@H](CCCNC(N)=O)NC(=O)[C@@H](NC(=O)CCCCCN2C(=O)CC(SC[C@H](NC(=O)[C@H](CC(=O)O)NC(=O)[C@H](Cc3ccc(O)cc3)NC(=O)[C@H](Cc3c[nH]c4ccccc34)NC(=O)[C@@H](N)CCCNC(=N)N)C(=O)O)C2=O)C(C)C)cc1)C(C)C` (stereo partly drawn) — result for concentration: “not detected” (C57BL/6 mouse, healthy, kidney; intraperitoneal, 2.5 mg/kg, 24 h).
Under “maximum metastasis uptake”, `CC[C@H](C)[C@H](NC(=O)[C@H](CO)NC(=O)[C@H](Cc1ccc(O)cc1)NC(=O)[C@H](Cc1ccc(O)cc1)NC(=O)[C@H](CC(N)=O)NC(=O)CNC(=O)[C@H](CO)NC(=O)[C@H](Cc1ccc(O)cc1)NC(=O)[C@H](CO)NC(=O)[C@H](CO)NC(=O)[C@H](CC(N)=O)NC(=O)COCCOCCNC(=O)CN1CCN(CC(=O)O)CCN(CC(=O)O)CCN(CC(=O)O)CC1)C(=O)N[C@@H](CC(C)C)C(N)=O` [copper-64 labelled] is recorded as 22.4 %IA/cc (dynamic PET; tamoxifen-induced PDAC mouse model, metastases; 0.6 min, CLDN4-expressing tumours).
`CC(C)C[C@H](NC(=O)[C@@H]1CCCN1C(=O)[C@H](CCCCN)NC(=O)[C@@H](N)CO)C(=O)N1CCC[C@H]1C(=O)N[C@@H](CCC(=O)O)C(=O)N[C@H](C(=O)N[C@H](C(=O)N[C@@H](CC(=O)O)C(=O)N[C@@H](CCC(=O)O)C(=O)N[C@@H](Cc1ccc(O)cc1)C(=O)NCC(=O)NCCOCCOCCOCCOCCOCCOCCOCCOCCOCCOCCOCCOCCOCCOCCOCCOCCOCCOCCOCCOCCOCCOCCOCCOCCC(=O)N[C@@H](CCCCNC(=O)CC[C@H](C(=O)O)N1CCN(CC(=O)O)CCN(CC(=O)O)CC1)C(=O)N1CCN(CCCN(C)c2ccc3nccc(C(=O)NCC(=O)N4CC(F)(F)C[C@H]4C#N)c3c2)CC1)[C@@H](C)O)C(C)C` [copper-64 labelled] — result for “time to maximum uptake”: no less than 10 min (PET; NMRI nude mouse, HT-1080 hFAP xenograft, tumour; intravenous).
The tissue uptake of `N=C(N)NCCC[C@@H]1NC(=O)[C@H](CCCCNC(=O)CCC(NC(=S)Nc2ccc(CC3CN(CC(=O)O)CCN(CC(=O)O)CCN(CC(=O)O)CCN3CC(=O)O)cc2)C(=O)NCCCC[C@@H]2NC(=O)[C@@H](Cc3ccc(O)cc3)NC(=O)[C@H](CC(=O)O)NC(=O)CNC(=O)[C@H](CCCNC(=N)N)NC2=O)NC(=O)[C@@H](Cc2ccc(O)cc2)NC(=O)[C@H](CC(=O)O)NC(=O)CNC1=O` (stereo partly drawn) [scandium-44 labelled] is reported as 1.07 ± 0.65 %ID/g (ex vivo γ-counting; female athymic nude mice, U-87 MG xenograft, liver; intravenous, 4 h).
For `CCCC[C@H](NC(=O)CN1CCC(NC(=O)CN2CCN(CC(N)=O)CCN(CC(N)=O)CCN(CC(N)=O)CC2)CC1)C(=O)N[C@H]1CC(=O)NCCCC[C@@H](C(N)=O)NC(=O)[C@H](Cc2c[nH]c3ccccc23)NC(=O)[C@H](CCCNC(=N)N)NC(=O)[C@@H](Cc2ccccc2)NC(=O)[C@H](Cc2c[nH]cn2)NC1=O` [lead-203 labelled], the logD was -2.43 ± 0.26 (shake flask; n-octanol/PBS; pH 7.4, 203Pb-labelled).
`CC(C)C[C@@H]1NC(=O)[C@H](CC(=O)O)NC(=O)CNC(=O)[C@H](CCCNC(=N)N)NC(=O)[C@H](Cc2ccccc2)NC(=O)[C@H](CCCCNC(=O)CCc2cn(CCCNC(=O)CN3CCN(CC(=O)O)CCN(CC(=O)O)CCN(CC(=O)O)CC3)nn2)N(C)C(=O)[C@H]2CCCN2C(=O)[C@H](Cc2ccccc2)NC(=O)[C@H](C)NC1=O` gave a tissue-to-tissue ratio of 11.9 ± 8.9 (female CB17 SCID mice, tumour and muscle; intravenous, dose not given, 90 min, 177Lu-labelled; relative to: tumour over muscle).
Under “organ-to-brain weight ratio”, `O=C1NC2(CC2)COc2ncc(F)cc2[C@H]2COCCN2c2ccn3ncc1c3n2` is recorded as 73.5 ± 8.01% (Sprague-Dawley rat, male, heart; oral, 2.5 mg/kg/day, 4 weeks, end of treatment).
The inhibition of `CN(C)[C@H]1C[C@@]23CC[C@@]4(O2)C(=CC[C@]2(C)[C@@H](c5ccc6ccncc6c5)CC[C@H]24)C=C3[C@@H](O)[C@@H]1O` is reported as 4.9% (Serine/threonine-protein kinase Nek4 (NEK4, Homo sapiens, UniProt P51957); ATP probe labelling, inhibitor, KiNativ profiling; 0.1 µM).
With `CC(C)C[C@H](NC(=O)[C@@H](N)Cc1ccccc1)C(=O)N[C@@H](C)C(=O)N[C@H]1CSCc2cccc(n2)CSC[C@@H](C(=O)N[C@H](C(=O)NCC(=O)N[C@@H](CO)C(=O)N[C@@H](Cc2c[nH]c3ccccc23)C(=O)N[C@@H](CCCCNC(=O)CN2CCN(CC(=O)O)CCN(CC(=O)O)CCN(CC(=O)O)CC2)C(N)=O)[C@@H](C)O)NC(=O)[C@H](Cc2c[nH]cn2)NC(=O)[C@H]([C@@H](C)O)NC(=O)[C@H](CCC(=O)O)NC(=O)[C@@H]2CCCN2C1=O` [gallium-68 labelled] the tissue uptake was 30 ± 3 %ID/g (gamma counting; C57BL/6J mouse, normal, kidney; iv, 1.85 MBq, 2 h).
`CC(=O)N[C@@H](CC(C)C)C(=O)N[C@H](C(=O)N[C@@H](Cc1ccccc1)C(=O)N[C@]1(C)CCCCCC/C=C/CCC[C@@](C)(C(=O)N[C@@H](C)C(=O)N[C@@H](C)C(=O)N[C@@H](C)C(=O)N[C@@H](C)C(=O)N[C@@H](C)C(=O)N[C@H](C)C(N)=O)NC(=O)[C@H](CC(C)C)NC(=O)[C@H](CCCCNC(=O)CCNC(=O)C[C@@H]2N=C(c3ccc(Cl)cc3)c3c(sc(C)c3C)-n3c(C)nnc32)NC(=O)[C@H](C)NC(=O)[C@H](Cc2c[nH]c3ccccc23)NC(=O)[C@H](Cc2ccc(O)cc2)NC(=O)[C@H](C)NC1=O)[C@@H](C)O` — result for “buffer chamber concentration”: 24.9 nM (equilibrium dialysis; mouse plasma; 2 µM, 6 h).
For `C[C@@H](O)[C@@H]1NC(=O)[C@@H](NC(=O)CCOCCOCCOCCOCCNC(=O)c2ccc(NN)nc2)CSSC[C@@H](C(=O)O)NC(=O)[C@H](Cc2c[nH]cn2)NC(=O)[C@H](CO)NC(=O)[C@H](Cc2ccccc2)NC(=O)[C@@H]2CCCN2C(=O)[C@H](CO)NC(=O)[C@@H]2CCCN2C1=O` [technetium-99m labelled], the tissue uptake was 1.39 ± 0.4 %ID/g (mouse HCT-116 xenograft, small intestine; intravenous, 37 MBq, postmortem after imaging).
With `CCCCCCCCCCCCCCC(=O)N[C@@H](CCCCNC(=O)CN1CCN(CC(=O)O)CCN(CC(=O)O)CCN(CC(=O)O)CC1)C(=O)NCCCC[C@@H]1NC(=O)[C@@H](Cc2ccccc2)NC(=O)[C@H](CC(=O)O)NC(=O)CNC(=O)[C@H](CCCNC(=N)N)NC1=O` [indium-111 labelled] the tumour uptake was 9.96 ± 1.84 %ID/g (female BALB/c nude mice, U-87 MG xenograft, tumour; intravenous, 4 h).

A few entries again:
For `C[C@@H](O)[C@@H]1NC(=O)[C@@H](NC(=O)CCOCCOCCOCCOCCNC(=O)c2ccc(NN)nc2)CSSC[C@@H](C(=O)O)NC(=O)[C@H](Cc2c[nH]cn2)NC(=O)[C@H](CO)NC(=O)[C@H](Cc2ccccc2)NC(=O)[C@@H]2CCCN2C(=O)[C@H](CO)NC(=O)[C@@H]2CCCN2C1=O` [technetium-99m labelled], the tissue uptake was 1.39 ± 0.4 %ID/g (mouse HCT-116 xenograft, small intestine; intravenous, 37 MBq, postmortem after imaging).
With `CCCCCCCCCCCCCCC(=O)N[C@@H](CCCCNC(=O)CN1CCN(CC(=O)O)CCN(CC(=O)O)CCN(CC(=O)O)CC1)C(=O)NCCCC[C@@H]1NC(=O)[C@@H](Cc2ccccc2)NC(=O)[C@H](CC(=O)O)NC(=O)CNC(=O)[C@H](CCCNC(=N)N)NC1=O` [indium-111 labelled] the tumour uptake was 9.96 ± 1.84 %ID/g (female BALB/c nude mice, U-87 MG xenograft, tumour; intravenous, 4 h).
